Experimental data from different studies.
Each numbered part is a random draw from the data of one study; scales do not carry over between parts.
Sequence of UniProt P07948 (whole entry, looked up): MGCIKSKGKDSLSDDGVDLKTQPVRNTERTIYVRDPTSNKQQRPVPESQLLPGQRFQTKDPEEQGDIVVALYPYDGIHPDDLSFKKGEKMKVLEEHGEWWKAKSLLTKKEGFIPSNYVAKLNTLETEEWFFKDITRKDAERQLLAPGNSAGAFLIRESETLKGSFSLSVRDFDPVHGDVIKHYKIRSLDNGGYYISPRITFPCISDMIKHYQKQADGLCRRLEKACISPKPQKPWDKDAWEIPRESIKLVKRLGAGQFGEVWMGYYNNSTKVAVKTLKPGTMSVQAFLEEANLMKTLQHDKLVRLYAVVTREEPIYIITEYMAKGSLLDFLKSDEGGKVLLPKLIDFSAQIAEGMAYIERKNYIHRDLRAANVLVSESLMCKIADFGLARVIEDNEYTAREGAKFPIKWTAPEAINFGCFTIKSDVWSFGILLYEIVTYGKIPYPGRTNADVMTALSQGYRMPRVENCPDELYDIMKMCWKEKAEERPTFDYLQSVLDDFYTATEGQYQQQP
Sequence of UniProt Q13976 (whole entry, looked up): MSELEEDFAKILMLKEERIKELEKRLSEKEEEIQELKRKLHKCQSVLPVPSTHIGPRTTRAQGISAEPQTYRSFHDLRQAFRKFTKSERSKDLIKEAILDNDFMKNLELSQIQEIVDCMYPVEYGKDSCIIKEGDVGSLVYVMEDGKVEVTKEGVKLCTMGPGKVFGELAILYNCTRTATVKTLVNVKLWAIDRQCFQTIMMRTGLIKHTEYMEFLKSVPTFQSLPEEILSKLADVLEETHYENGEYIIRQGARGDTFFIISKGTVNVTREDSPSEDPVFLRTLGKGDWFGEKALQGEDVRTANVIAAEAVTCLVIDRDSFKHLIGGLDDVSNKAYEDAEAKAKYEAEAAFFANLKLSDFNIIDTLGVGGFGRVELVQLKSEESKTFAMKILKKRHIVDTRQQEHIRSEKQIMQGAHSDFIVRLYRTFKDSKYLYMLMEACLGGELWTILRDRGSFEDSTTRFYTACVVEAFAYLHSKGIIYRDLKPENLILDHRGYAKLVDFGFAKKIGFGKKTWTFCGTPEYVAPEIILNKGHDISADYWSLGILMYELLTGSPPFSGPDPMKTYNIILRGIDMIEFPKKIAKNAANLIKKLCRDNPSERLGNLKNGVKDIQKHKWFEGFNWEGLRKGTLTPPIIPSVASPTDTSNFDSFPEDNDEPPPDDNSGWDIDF
Sequence of UniProt P05771 (whole entry, looked up): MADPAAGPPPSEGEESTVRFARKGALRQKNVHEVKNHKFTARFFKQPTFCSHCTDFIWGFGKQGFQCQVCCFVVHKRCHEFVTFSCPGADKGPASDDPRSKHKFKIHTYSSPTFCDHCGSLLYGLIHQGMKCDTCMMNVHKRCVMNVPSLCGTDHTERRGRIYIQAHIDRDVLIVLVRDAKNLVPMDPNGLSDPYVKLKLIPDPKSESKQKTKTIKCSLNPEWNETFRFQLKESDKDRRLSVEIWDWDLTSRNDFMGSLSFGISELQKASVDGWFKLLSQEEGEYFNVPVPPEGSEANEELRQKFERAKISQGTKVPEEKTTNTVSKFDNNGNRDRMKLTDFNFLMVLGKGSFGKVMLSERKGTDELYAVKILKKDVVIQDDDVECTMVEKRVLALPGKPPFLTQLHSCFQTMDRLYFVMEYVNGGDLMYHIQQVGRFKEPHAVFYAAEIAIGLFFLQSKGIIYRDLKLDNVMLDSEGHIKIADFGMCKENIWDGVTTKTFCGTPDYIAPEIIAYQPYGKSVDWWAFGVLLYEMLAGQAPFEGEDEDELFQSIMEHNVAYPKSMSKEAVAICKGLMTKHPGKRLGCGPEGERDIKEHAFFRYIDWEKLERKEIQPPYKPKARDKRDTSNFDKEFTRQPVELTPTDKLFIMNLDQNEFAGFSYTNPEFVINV

Study 1
Target: Interferon regulatory factor 7, full length, phosphomimetic (IRF7, Homo sapiens, UniProt Q92985, residues 1-503, S471D/S472D/S475D/S476D/S477D/S483D/S484D/S487D)
Method: protein-binding microarray
Form: double-stranded DNA, one strand shown
Medium: in vitro
Tested at: 2200 nM top
Notes: 60-bp whole probe
Together with: salmon DNA 0.4 mg/ml
Reference: random background probes
Direction: higher = stronger binding
Constant ends, left off below: GCCTAGCAC … GTCTTGATTCGCTTGACGCTGCTG
Construct (chain): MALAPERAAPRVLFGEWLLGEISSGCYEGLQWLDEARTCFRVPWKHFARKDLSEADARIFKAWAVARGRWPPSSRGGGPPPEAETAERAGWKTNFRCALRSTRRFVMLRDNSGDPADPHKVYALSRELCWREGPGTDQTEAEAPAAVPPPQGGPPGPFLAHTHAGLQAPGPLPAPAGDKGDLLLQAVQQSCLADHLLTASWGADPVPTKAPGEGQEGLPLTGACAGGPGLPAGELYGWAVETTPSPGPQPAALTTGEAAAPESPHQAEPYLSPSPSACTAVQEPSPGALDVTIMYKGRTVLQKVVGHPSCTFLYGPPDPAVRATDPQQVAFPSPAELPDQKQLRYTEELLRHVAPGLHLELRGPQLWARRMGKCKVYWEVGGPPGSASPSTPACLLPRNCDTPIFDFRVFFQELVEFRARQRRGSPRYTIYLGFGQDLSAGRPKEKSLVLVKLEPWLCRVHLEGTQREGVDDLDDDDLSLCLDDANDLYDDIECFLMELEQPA
Strand	fitted relative affinity [z-score]
TTAGATATCAGTTTCGAGTAGTGCTAG	3.57
TTAGGACTAGACACTGGGTTAGTGCTA	-0.652
TTAGATTCCAGTTTCGAATAGTGCTAG	3.19
GACGGTTTCCTTTCCCTGCCGTGCTAG	4.42
GACGGTTTCGGTATGGGGACGTGCTAG	8.32
TTCATTTTCTGAATGTCCTCGTGCTAG	4.34
CCCTGGCTCCCTATAAAAGGGTGCTAG	-1.11
TCAGCTGTTTTTCTCACACTGTGCTAG	0.889

Study 2
Target: Runt-related transcription factor 1, full length (RUNX1, Homo sapiens, UniProt Q01196-8, residues 1-480)
Method: protein-binding microarray
Form: hairpin DNA
Medium: in vitro
Tested at: not given
Notes: whole hairpin DNA, median over replicate spots
Reference: not given
Direction: higher = stronger binding
Strand	median fluorescence
GAGGCCTGCTGCGGTTGGCCTCCTGGCCAACCGCAGCAGGCCTCACACTC	4360 a.u.
GAGGCCCGTTGTGGTTGGCCTCCTGGCCAACCACAACGGGCCTCACACTC (5mC at 7)	3170 a.u.
GAGGCCTGTTGTGCGTGGCCTCCTGGCCACGCACAACAGGCCTCACACTC (5mC at 30)	1830 a.u.
CTCAGTTCTGTGGGCTCGACTCCTGTCGAGCCCACAGAACTGAGACACTC	1960 a.u.
CTCAGGTCTGTGGGCTGGACTCCTGTCCAGCCCACAGACCTGAGACACTC	1960 a.u.
GAGGGCTGTCGCGGTTGGCCTCCTGGCCAACCGCGACAGCCCTCACACTC (5mC at 40)	2780 a.u.
GAGGCCTGTCGCGGTTTGCCTCCTGGCAAACCGCGACAGGCCTCACACTC	3480 a.u.
GAGGCCTGCGGTGGTTGGCCTCCTGGCCAACCACCGCAGGCCTCACACTC (5mC at 35)	2150 a.u.

Study 3
Compound: O=C1Nc2ccc(Cl)cc2C1=Cc1cc(Cl)c(O)c(Cl)c1
Effect on: enzyme activity
Action: inhibitor
Tested at: 0.5 µM
Reference: control
target	remaining activity [%]
Protein kinase C beta type, isoform beta-I (PRKCB, Homo sapiens, UniProt P05771)	97.3
cGMP-dependent protein kinase 1, isoform beta (PRKG1, Homo sapiens, UniProt Q13976)	102
Tyrosine-protein kinase Lyn, isoform B (LYN, Homo sapiens, UniProt P07948)	87.5

Study 4
Cell line: normal-adjacent organoid sample F
Method: CellTiter-Glo
Tested at: 0.1 µM
Notes: replicate mean
Reference: DMSO
SMILES	viability [%]
CCCOc1ccc([C@@H]2[C@@H](C(=O)O)[C@H](c3ccc4c(c3)OCO4)CN2CC(=O)Nc2c(CC)cccc2CC)cc1	107
CC(C)(C)OC(=O)N1CCCC1CNC1CCC(c2cc(F)ccc2F)(S(=O)(=O)c2ccc(Cl)cc2)CC1 (stereo not drawn)	91.1
COCCOc1nc(-c2ccc(Cl)nc2)nc2c1CN(C(=O)c1ncn3ccccc13)CC2	87.4
Cc1cc(C)c(-n2ccn3nc(-c4cccnc4)cc23)cc1NC(=O)c1cc(C#N)cc(S(F)(F)(F)(F)F)c1	97.9
CNCc1ccccc1-c1csc([C@H](C)Nc2nc(C)nc3cc(OC)c(OC)cc23)c1	113
O=C(O)[C@H]1[C@H](Cn2nnc3ccccc3c2=O)CC[C@@H]1C(=O)c1ccc(OCCC2CCOCC2)cc1	114
O=C(Nc1ccc(Oc2ccc(F)cc2)cc1)N1CCc2ncccc2[C@H]1c1ccc(F)cc1	99
Cc1c[nH]c2nccc(Oc3c(F)cc(Nc4cc(Cl)nc(N)n4)cc3F)c12	113

For quick reference, copied from above (study 4):
SMILES	viability [%]
CCCOc1ccc([C@@H]2[C@@H](C(=O)O)[C@H](c3ccc4c(c3)OCO4)CN2CC(=O)Nc2c(CC)cccc2CC)cc1	107
CNCc1ccccc1-c1csc([C@H](C)Nc2nc(C)nc3cc(OC)c(OC)cc23)c1	113
